Assay results gathered from unrelated publications.
Values joined by “and” are separate records of one study, mostly repeats; a detail may differ. Numbers after ± are the reported error.
EEF2K: Eukaryotic elongation factor 2 kinase (EEF2K, Homo sapiens, UniProt O00418)

Structure (SMILES)	target or system	test	system	conditions	endpoint	result
O=C1NC2(CC2)COc2ncc(F)cc2[C@H]2COCCN2c2ccn3ncc1c3n2	–	–	Sprague-Dawley rat, female, blood	oral, 5 mg/kg/day, 4 weeks, end of recovery, subacute toxicity	mean corpuscular haemoglobin	18.5 ± 0.8 pg
CC(C)(C)C(=O)OCOP(=O)(OCOC(=O)C(C)(C)C)C1CCCN(O)C1=O (stereo not drawn)	HCT-15	–	–	–	CC50	> 100 µM
CC(=O)NCCCC[C@@H]1NC(=O)[C@H](Cc2c[nH]c3c(C)cccc23)NC(=O)[C@H]([C@@H](C)O)NC(=O)[C@H](CC(N)=O)NC(=O)[C@@H](NC(C)=O)C(C)(C)SSC(C)(C)[C@@H](C(=O)N[C@@H](Cc2ccc(OCCN)cc2)C(=O)N[C@@H](Cc2ccc3ccccc3c2)C(=O)NC2(C(=O)N[C@@H](CCC(=O)O)C(=O)N[C@@H](CC(N)=O)C(=O)N[C@@H](Cc3cccnc3)C(=O)N(C)CC(N)=O)CCOCC2)NC1=O	Albumin (ALB, Homo sapiens, UniProt P02768)	equilibrium dialysis	purified human albumin	0.1 µM	protein binding	25.7 ± 4.3 % bound
N=C(N)NCCC[C@@H]1NC(=O)[C@H](CCCCNC(=O)CCC(NC(=S)Nc2ccc(CC3CN(CC(=O)O)CCN(CC(=O)O)CCN(CC(=O)O)CCN3CC(=O)O)cc2)C(=O)NCCCC[C@@H]2NC(=O)[C@@H](Cc3ccc(O)cc3)NC(=O)[C@H](CC(=O)O)NC(=O)CNC(=O)[C@H](CCCNC(=N)N)NC2=O)NC(=O)[C@@H](Cc2ccc(O)cc2)NC(=O)[C@H](CC(=O)O)NC(=O)CNC1=O (stereo partly drawn) [scandium-44 labelled]	–	ex vivo γ-counting	female athymic nude mice, U-87 MG xenograft, lung	intravenous, 4 h, added: cRGD 50 mg/kg blocking	tissue uptake	0.058 ± 0.007 %ID/g
Cc1ccc(N(C)CCN2CCOCC2)cc1C(=O)N[C@H](C)c1cc(-c2cnn(C)c2)nc2ccccc12	Vero E6	–	–	7.812 µM	viability	91.9% and 90.4% and 92.5%
CCCCCC1=C(NCC)C(=O)C(C/C=C(\C)CCC=C(C)C)=C(O)C1=O	human peripheral lymphocytes	–	–	40 µg/mL, 3 h, without S9, harvest 27 h	cytostasis	56%
O=C1CC[C@@]2(O)[C@H]3Cc4ccc(O)c5c4[C@@]2(CCN3CCc2ccccc2)[C@H]1O5	–	–	octanol/buffer	1 h, pH 7.4	logD	0.78
CC[C@H](C)[C@H](NC(=O)[C@H](CO)NC(=O)[C@H](Cc1ccc(O)cc1)NC(=O)[C@H](Cc1ccc(O)cc1)NC(=O)[C@H](CC(N)=O)NC(=O)CNC(=O)[C@H](CO)NC(=O)[C@H](Cc1ccc(O)cc1)NC(=O)[C@H](CO)NC(=O)[C@H](CO)NC(=O)[C@H](CC(N)=O)NC(=O)COCCOCCNC(=O)CN1CCN(CC(=O)O)CCN(CC(=O)O)CCN(CC(=O)O)CC1)C(=O)N[C@@H](CC(C)C)C(N)=O [copper-64 labelled]	–	dynamic PET	tamoxifen-induced PDAC mouse model, metastases	4.5 min, CLDN4-expressing tumours	maximum metastasis uptake	22.9 %IA/cc
Cc1nc2cccc(OCC(C)(C)C(=O)NC(C)C)c2c(N)c1C(=O)[O-].[Na+]	Salmonella typhimurium	Ames preincubation	TA1535	0.13 mg/plate, added: with rat liver S9	revertant colonies	14 ± 1 colonies/plate
COc1ccc2c3c1O[C@H]1[C@H](O)C=C[C@@]4(O)[C@@H](C2)N(C)CC[C@]314	–	–	octanol/buffer	1 h, pH 7.4	logD	-0.61
CCn1ccc(-c2cc(C(C)NC(=O)c3cc(N4CC5CC4CN5C)ccc3C)c3ccccc3n2)n1 (stereo not drawn)	Vero E6	–	–	250 µM	viability	1.34% and 2.11% and 0.96%
CC(C)[C@H]1NC(=O)C[C@H]2/C=C/CCSSC[C@@H](NC1=O)C(=O)N[C@H](Cc1cccc3ccccc13)C(=O)NCC(=O)O2	EEF2K	enzyme activity, inhibitor	–	10 µM	inhibition	9.6%
CN(C)CCCNC(=O)[C@@H]1NC(=O)[C@@H]2Cc3ccc(cc3)Oc3cc4cc(c3O)-c3ccc5c(c[nH]c5c3)C[C@@H](NC(=O)C(NC(=O)CCCCCN)c3ccc(O)cc3)C(=O)N[C@H](c3ccc(O)cc3)C(=O)N[C@H]4C(=O)N[C@@H](C(=O)N2C)c2ccc(cc2)Oc2cc1ccc2O (stereo partly drawn)	human red blood cells	–	–	32 µg/mL, 1 h, 37 °C, 1% DMSO	hemolysis	0.47%
Cc1ccc(OCCN(C)C)cc1C(=O)N[C@H](C)c1cc(-c2ccc(C#N)nc2)nc2ccccc12	Vero E6	–	–	31.25 µM	viability	41.2% and 29.2%
CN(C)[C@H]1C[C@@]23CC[C@@]4(O2)C(=CC[C@]2(C)[C@@H](c5ccc6ccncc6c5)CC[C@H]24)C=C3[C@@H](O)[C@@H]1O	EEF2K	ATP probe labelling, inhibitor, KiNativ profiling	–	1 µM	inhibition	20.8%

For quick reference, copied from above:
Structure (SMILES)	target or system	test	system	conditions	endpoint	result
Cc1nc2cccc(OCC(C)(C)C(=O)NC(C)C)c2c(N)c1C(=O)[O-].[Na+]	Salmonella typhimurium	Ames preincubation	TA1535	0.13 mg/plate, added: with rat liver S9	revertant colonies	14 ± 1 colonies/plate
